Measurements from different studies.

SMILES	assay	test system	setting	Tmax
CN(CCC(=O)O)C(=O)c1ccc2c(c1)CC[C@@H]1[C@@H]2CC[C@]2(C)C(c3cncc(F)c3)=CC[C@@H]12	–	postmenopausal women, plasma	30 mg single dose, median	2.02 h
CCCCC[C@H](O)CC[C@@H]1[C@H]2Cc3cccc(OCC(=O)O)c3C[C@H]2C[C@H]1O	LC-MS/MS	Japanese PAH patients, plasma	inhaled, 54 µg, body weight under 56.7 kg, mean	0.15 h
CC(F)(F)c1nc2nc(CO)cc(Nc3ccc(S(F)(F)(F)(F)F)cc3)n2n1	LC-MS/MS, non-compartmental	malaria patients	600 mg of parent drug, median	114 h
COc1nnc2ccc(N3CCC(c4ccc(OCCN5CCN(C)C(=O)[C@H]5C)cc4)CC3)nn12	–	patients, plasma	oral, 20 mg twice daily, multiple dose, monotherapy, median	1 h
CO[C@H]1CC[C@H](N2C(=O)CNc3ncc(-c4ccc(C(C)(C)O)nc4)nc32)CC1	–	patients, plasma	oral, 60 mg, day 15, median	1.58 h
O=C(c1cccnc1-c1ccncc1)N1CCC(O)(Cc2ccccc2)CC1	–	healthy Japanese adults, plasma	oral, 1200 mg single dose	0.5 h
CCCCCCCCCCCCCCCC(=O)N[C@@H](CCC(=O)NCCCC[C@@H]1NC(=O)[C@H]([C@@H](C)CC)NC(=O)[C@@H](NC(=O)[C@@H]2CCCN2C(=O)[C@H](Cc2ccccc2)NC(=O)[C@H](Cc2c[nH]cn2)NC(=O)[C@@H](NC(=O)[C@H](CC(=O)O)NC(=O)CC(C)C)[C@@H](C)O)CSSC[C@@H](C(=O)N[C@@H](CCCCN)C(N)=O)NC(=O)CNC(=O)[C@H](CCCCN)NC(=O)[C@H](CO)NC(=O)[C@H](CCCNC(=N)N)NC(=O)[C@@H]2CCCN2C(=O)[C@H](CCC(=O)O)NC(=O)[C@H](Cc2ccccc2)NC1=O)C(=O)O	–	healthy volunteers, plasma	subcutaneous, 45 mg single, lyophilised formulation, median	4 h
C[C@H]1CN(C(=O)CC#N)[C@]12CCN(c1ncnc3[nH]ccc13)C2	–	healthy Japanese males	oral, 1 mg single dose, median	0.8 h
CCc1nc2c(C)cc(N3CCN(CC(=O)N4CC(O)C4)CC3)cn2c1N(C)c1nc(-c2ccc(F)cc2)c(C#N)s1	–	healthy volunteers, fed, plasma	oral, 600 mg single dose, day 1, capsule	2.5 h
C[C@@](Cc1ccc(O)c(O)c1)(NN)C(=O)O	–	female Parkinson's disease patients, plasma	oral, median	1.75 h

For quick reference, copied from above:
SMILES	assay	test system	setting	Tmax
CCCCCCCCCCCCCCCC(=O)N[C@@H](CCC(=O)NCCCC[C@@H]1NC(=O)[C@H]([C@@H](C)CC)NC(=O)[C@@H](NC(=O)[C@@H]2CCCN2C(=O)[C@H](Cc2ccccc2)NC(=O)[C@H](Cc2c[nH]cn2)NC(=O)[C@@H](NC(=O)[C@H](CC(=O)O)NC(=O)CC(C)C)[C@@H](C)O)CSSC[C@@H](C(=O)N[C@@H](CCCCN)C(N)=O)NC(=O)CNC(=O)[C@H](CCCCN)NC(=O)[C@H](CO)NC(=O)[C@H](CCCNC(=N)N)NC(=O)[C@@H]2CCCN2C(=O)[C@H](CCC(=O)O)NC(=O)[C@H](Cc2ccccc2)NC1=O)C(=O)O	–	healthy volunteers, plasma	subcutaneous, 45 mg single, lyophilised formulation, median	4 h
COc1nnc2ccc(N3CCC(c4ccc(OCCN5CCN(C)C(=O)[C@H]5C)cc4)CC3)nn12	–	patients, plasma	oral, 20 mg twice daily, multiple dose, monotherapy, median	1 h
